Assay results of several laboratories.
Parts stem from different laboratories: compare values within a part only.

Study 1
Target: RNA binding protein fox-1 homolog 2, RRM domain, GST-SBP tag (RBFOX2, Homo sapiens, UniProt O43251-10, residues 100-194)
Technique: RNA Bind-n-Seq
Form: RNA
Sample: in vitro
Concentration: 365 nM
Notes: natural RNA segment, single round, ends assumed
Relative to: no-protein control
Reading: higher = stronger binding
Constant ends, left off below: GGGAGUUCUACAGUCCGACGAUC … UGGAAUUCUCGGGUGCCAA
Construct (chain): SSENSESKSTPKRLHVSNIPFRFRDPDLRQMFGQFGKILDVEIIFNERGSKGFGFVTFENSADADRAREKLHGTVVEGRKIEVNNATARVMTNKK
Sequence | RBNS enrichment (R)
CAAACUUGAAUAGGGGCUGGGGUGCUGUCUUCCACUGACACCCAAAUCCAGAAUCCCUGGUCUUGAGUCCCCAGAACUUUGCCUCUUGACUGUCCCUUCUCUUCCUACCU | 0.309
AGUGAUAGCGAUACAGCUCAGGAAUGGACUAUGGAAACUGAUACCUAGCGACAUUAGCUGAGAACACCACGGAGCUGCUUCCCUCCCUCUGCAGUCAGUCUGUUUUCAGA | 0.509
GUAAUAAGGAGGGAGCUCUGGACUCAAAGCAGCUGGCUUCCACAGCUGAAGGUUUUACAUUACGUUUUCAAUUAAGUUGCCAACGUUUUAACAACUGGAGAAUGGUAUUC | 0.66
AGAUAUGAUUCUCAGUGGGAUUUUGGAAACUUUGAUUGCUCAAGCUCACCCUUCUUAACAUUCUGUAAUGGUUACAGAUGAGAAUGGAAAACACAUAUUUUAUGGAUGAG | 0.36
AGCCUGGUUAGAACUUGUUUCUAGUGCUAAUGCUCUGACCUAGUAUUUCCAUUGGAGAUCACUGUCCAGCCAUCUAAAGCCCUGUUAUUCGAGUCAAGCUUAUCCCCAUU | 0.279
CAGGGGCCAUGUCAUGUUAUUGGGACUUGGGGCUAAGUGGGAGGUCCUGUCCUUCCCCUCAUCUCUUCCUGGGGUUUCAAGACCAAAGGCAAUGAGGAGAUACACGAUUC | 0.438

Study 2
Target: Histone acetyltransferase KAT6A, both winged helices, GST fusion (KAT6A, Homo sapiens, UniProt Q92794, residues 1-181)
Technique: protein binding microarray
Form: double-stranded DNA, one strand shown
Sample: in vitro
Concentration: not given
Notes: 8-mer, flanks averaged, mean of 2 arrays, mostly near background
Relative to: not given
Reading: higher = stronger binding
Target sequence (chain): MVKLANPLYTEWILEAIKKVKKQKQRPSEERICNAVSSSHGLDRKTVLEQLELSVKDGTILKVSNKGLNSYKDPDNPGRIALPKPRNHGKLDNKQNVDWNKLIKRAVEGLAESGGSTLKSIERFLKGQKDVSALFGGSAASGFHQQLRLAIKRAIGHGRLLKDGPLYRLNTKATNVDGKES
Sequence | E-score
CCACACGA | -0.114
AGGTAGTC | -0.214
ATGGAGAA | -0.0513
CCAGTCGA | -0.0944
ATAAACGG | 0.2
AACAAAAC | -0.0552
ACGGGTAC | 0.218

Study 3
Target: Sal-like protein 4, full length isoform A (SALL4, Homo sapiens, UniProt Q9UJQ4, residues 1-1053)
Sequence of UniProt Q9UJQ4 (whole entry, looked up): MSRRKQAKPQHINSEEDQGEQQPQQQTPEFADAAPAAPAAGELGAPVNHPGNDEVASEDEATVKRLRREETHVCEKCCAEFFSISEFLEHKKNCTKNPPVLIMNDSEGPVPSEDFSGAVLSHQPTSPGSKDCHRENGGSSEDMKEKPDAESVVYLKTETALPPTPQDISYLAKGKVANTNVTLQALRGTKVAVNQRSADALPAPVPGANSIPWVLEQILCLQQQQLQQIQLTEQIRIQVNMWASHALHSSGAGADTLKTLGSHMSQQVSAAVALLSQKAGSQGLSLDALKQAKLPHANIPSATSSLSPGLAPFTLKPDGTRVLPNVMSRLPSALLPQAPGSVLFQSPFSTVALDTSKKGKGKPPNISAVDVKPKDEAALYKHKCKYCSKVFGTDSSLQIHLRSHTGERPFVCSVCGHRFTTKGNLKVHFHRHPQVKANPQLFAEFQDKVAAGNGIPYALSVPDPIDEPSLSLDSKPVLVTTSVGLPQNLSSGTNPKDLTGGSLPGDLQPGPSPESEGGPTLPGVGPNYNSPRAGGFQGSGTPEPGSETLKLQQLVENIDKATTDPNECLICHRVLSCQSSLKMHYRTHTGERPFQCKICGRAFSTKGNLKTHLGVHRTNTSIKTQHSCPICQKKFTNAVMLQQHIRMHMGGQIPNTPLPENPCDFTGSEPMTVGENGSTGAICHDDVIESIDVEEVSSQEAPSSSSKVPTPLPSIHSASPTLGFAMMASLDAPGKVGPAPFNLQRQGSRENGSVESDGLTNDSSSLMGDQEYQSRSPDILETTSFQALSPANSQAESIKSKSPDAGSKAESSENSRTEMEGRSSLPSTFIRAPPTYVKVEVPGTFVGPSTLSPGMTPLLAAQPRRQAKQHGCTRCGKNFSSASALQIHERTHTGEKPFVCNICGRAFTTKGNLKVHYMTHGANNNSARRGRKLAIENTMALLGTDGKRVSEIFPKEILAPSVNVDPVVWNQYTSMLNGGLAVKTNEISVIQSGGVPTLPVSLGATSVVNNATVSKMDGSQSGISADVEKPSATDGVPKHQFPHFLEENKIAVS
Technique: universal PBM
Form: double-stranded DNA, one strand shown
Sample: in vitro
Concentration: 600 nM
Notes: 8-mer, flanks averaged, mean of replicates
Reading: higher = stronger binding
Sequence | E-score
CAGAAAGA | 0.0596
AGTTAACA | 0.203
ACCAGCCG | -0.323
GCATAAGC | 0.0973
CACGATCA | 0.0878
ATATGGAC | 0.175
AAAGCAGC | -0.138
ATCTTTCC | 0.108
TTTGCAAA | 0.204

Other studies, line by line
Molecule | target | test | system | setting | how to read | quantity | value
PhoQ, residues 284 288 289 292 302 303 TNASYF | PhoP, residues 12 14 15 18 19 YHFSH (Escherichia coli, UniProt P23836) | Sort-seq, measured: YFP reporter | E. coli | PhoQ-PhoP variant library, together with: 10 µM Mg2+ | relative to: high Mg2+ state, higher = stronger signaling | fold induction | 1.75
